Measured values from different studies.
Protocols differ between the studies behind these lines. Numbers after ± are the reported error. Ends that are not written are not given here. No end group written: not given here. *: point of attachment.
B1: UGT1A9 (Homo sapiens, UniProt O60656); chain GKLLVVPMDGSHWFTMRSVVEKLILRGHEVVVVMPEVSWQLGRSLNCTVKTYSTSYTLEDLDREFKAFAHAQWKAQVRSIYSLLMGSYNDIFDLFFSNCRSLFKDKKLVEYLKESSFDAVFLDPFDNCGLIVAKYFSLPSVVFARGILCHYLEEGAQCPAPLSYVPRILLGFSDAMTFKERVRNHIMHLEEHLLCHRFFKNALEIASEILQTPVTEYDLYSHTSIWLLRTDFVLDYPKPVMPNMIFIGGINCHQGKPLPMEFEAYINASGEHGIVVFSLGSMVSEIPEKKAMAIADALGKIPQTVLWRYTGTRPSNLANNTILVKWLPQNDLLGHPMTRAFITHAGSHGVYESICNGVPMVMMPLFGDQMDNAKRMETKGAGVTLNVLEMTSEDLENALKAVINDKSYKENIMRLSSLHKDRPVEPLDLAVFWVEFVMRHKGAPHLRPAAHDLTWYQYHSLDVIGFLLAVVLTVAFITFKCCAYGYRKCLGKKGRVKKAHKSKTH
B2: TRM10 D210A (Saccharomyces cerevisiae, UniProt Q12400); chain MSNDEINQNEEKVKRTPPLPPVPEGMSKKQWKKMCKRQRWEENKAKYNAERRVKKKRLRHERSAKIQEYIDRGEEVPQELIREPRINVNQTDSGIEIILDCSFDELMNDKEIVSLSNQVTRAYSANRRANHFAEIKVAPFDKRLKQRFETTLKNTNYENWNHFKFLPDDKIMFGDEHISKDKIVYLTADTEEKLEKLEPGMRYIVGGIVAKNRYKELCLKKAQKMGIPTRRLPIDEYINLEGRRVLTTTHVVQLMLKYFDDHNWKNAFESVLPPRKLDAEAKSASSSPAPKDT
B3: enzyme (Bacillus pumilus, UniProt A8FFI9); chain EARSIAWSVDEFFKNREGTFVIQEVKEKSPWVYNKKRAKERFAPQSTFKVANALIGLQTGAVRDEYDIKYWDGVKREIDNWNRDHTLGSGMRDSVVWYYQAMARDIGEERMNHWVKAIHYGNKDISGGIDQFWLSSTLRISPIEQVRFLKQLYEETLPFDLKNMRTVKRMMVQEEEKHATLYGKTGSGSDIGWYVGFIKHEHKTYILATNIKGTGIEAKDITYRILKKYHLMEASV
Sequence of UniProt Q6QT07 (whole entry, looked up): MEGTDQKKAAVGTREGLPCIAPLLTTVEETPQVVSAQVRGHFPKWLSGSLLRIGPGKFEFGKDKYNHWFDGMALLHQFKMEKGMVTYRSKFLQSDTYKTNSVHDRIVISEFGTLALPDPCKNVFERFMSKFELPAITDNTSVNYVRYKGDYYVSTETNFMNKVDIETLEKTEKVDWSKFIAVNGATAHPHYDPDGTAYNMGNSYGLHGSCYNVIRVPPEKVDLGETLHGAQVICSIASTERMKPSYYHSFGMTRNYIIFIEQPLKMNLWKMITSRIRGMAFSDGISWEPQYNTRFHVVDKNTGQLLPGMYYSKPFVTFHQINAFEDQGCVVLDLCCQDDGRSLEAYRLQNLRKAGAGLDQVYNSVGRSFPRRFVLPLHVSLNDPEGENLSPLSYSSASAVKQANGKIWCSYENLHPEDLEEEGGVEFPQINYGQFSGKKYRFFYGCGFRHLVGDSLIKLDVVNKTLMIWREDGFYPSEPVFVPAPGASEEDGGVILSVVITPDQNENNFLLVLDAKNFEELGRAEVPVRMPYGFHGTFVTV

| Substance | tested on | assay | system | setting | endpoint | value |
| --- | --- | --- | --- | --- | --- | --- |
| B1 (UGT1A9) | COc1cc2c(=O)c(-c3ccccc3)coc2cc1O | steady-state kinetics | – | pH 7.4, 37 °C | Vmax | 0.00114 µmol/min/mg |
| GSS(Octanoyl)FLSPEHQRVQQRKESKKPPAKLQPR (ghrelin; Octanoyl = CCCCCCCC(=O)*; sequence looked up) | Calu-3 monolayer | – | peptide, basal side | 1 mg/mL, 3 h, apical to basal | permeated amount | 0% |
| protein (Sinorhizobium meliloti, UniProt Q92T34) | NC(=O)C1=CN([C@@H]2O[C@H](COP(=O)(O)OP(=O)(O)OC[C@H]3O[C@@H](n4cnc5c(N)ncnc54)[C@H](OP(=O)(O)O)[C@@H]3O)[C@@H](O)[C@H]2O)C=CC1 | steady-state kinetics | – | pH 7.5, 25 °C, NaCl 150 mM, cofactor varied, added: hydroxypyruvate 66.7 mM | K0.5 | 10.5 µM |
| B2 (TRM10 D210A) | C[S+](CC[C@H](N)C(=O)O)C[C@H]1O[C@@H](n2cnc3c(N)ncnc32)[C@H](O)[C@@H]1O | steady-state kinetics | – | pH 8, 30 °C | K0.5 | 4.3 µM |
| RBRBRBRBRBRBRBRBB (PMO conjugate) | pLuc705 | MTT | peptide | 2 to 60 µM, 24 h, 10% serum, D-arginine variant | viability | no effect |
| CC(C)[C@H](NC(=O)[C@@H]1CCCN1C(=O)[C@H](CCCNC(=N)N)NC(=O)[C@H](CS)NC(=O)[C@H](Cc1c[nH]c2ccccc12)NC(=O)[C@H](CCCNC(=N)N)NC(=O)[C@@H](Cc1ccccc1)NC(=O)[C@H](Cc1c[nH]cn1)NC(=O)[C@H](CCC(=O)O)NC(=O)[C@H](CS)NC(=O)[C@H](CS)NC(=O)[C@H](CCCCN)NC(=O)[C@@H]1CC(=O)N[C@@H](CCCNC(=N)N)C(=O)N[C@@H](C)C(=O)N[C@@H](CC(=O)O)C(=O)N[C@H](Cc2ccc(O)cc2)C(=O)N1)C(N)=O [technetium-99m labelled] | – | – | C57 mice, blood | intravenous, 0.037 MBq, 0.5 h | tissue uptake | 3.46 ± 0.5 %ID/g |
| B3 (enzyme) | C[C@@H](O)[C@H]1C(=O)N2C(C(=O)O)=C(S[C@@H]3CN[C@H](CNS(N)(=O)=O)C3)[C@H](C)[C@H]12 | steady-state kinetics | – | pH 7 | kcat | 0.014 ± 0.02 s⁻¹ |
| BCO2 (Mustela putorius furo, UniProt Q6QT07) | CC1=C(/C=C/C(C)=C/C=C/C(C)=C/C=C/C=C(C)/C=C/C=C(C)/C=C/C2=C(C)C[C@@H](O)CC2(C)C)C(C)(C)CCC1 | steady-state kinetics | crude Sf9 lysate | pH 8.5, 37 °C, apparent, not purified, added: FeSO4 10 µM, NAD+ 3 mM | K0.5 | 80.8 µM |
| KCNTATCATQRLANFLVHSSNNFGPILPPTNVGSNTY (Pramlintide; not fully specified (C-terminus, bridges); cysteine pairing not given here; sequence looked up) | – | – | peptide, obese or overweight humans | dose not given | back pain incidence | 5.4% |
| COc1cccc2c1C(=O)c1c(O)c3c(c(O)c1C2=O)C[C@@](O)(C(=O)CO)C[C@@H]3O[C@H]1C[C@H](NC(=O)[C@@H]2CCCN2C(=O)CN)[C@H](O)[C@H](C)O1 | – | – | mouse, E0771 tumour-bearing, heart | intravenous, 92 µmol/kg PhAc-ALGP-Dox | Cmax | 1650 nM |

A few entries again:
| Substance | tested on | assay | system | setting | endpoint | value |
| --- | --- | --- | --- | --- | --- | --- |
| RBRBRBRBRBRBRBRBB (PMO conjugate) | pLuc705 | MTT | peptide | 2 to 60 µM, 24 h, 10% serum, D-arginine variant | viability | no effect |
